Experimental data from different studies.
Protocols differ between the studies behind these lines. ± gives the spread as reported.

For `CCCC[C@H](NC(=O)CN1CCC(NC(=O)CN2CCN(CC(=O)O)CCN(CC(=O)O)CCN(CC(=O)O)CC2)CC1)C(=O)N[C@H]1CC(=O)NCCCC[C@@H](C(N)=O)NC(=O)[C@H](Cc2c[nH]c3ccccc23)NC(=O)[C@H](CCCNC(=N)N)NC(=O)[C@@H](Cc2ccccc2)NC(=O)[C@H](Cc2c[nH]cn2)NC1=O` [gallium-68 labelled], the tissue uptake was 0.7 ± 0.5 %ID/g (male C57BL/6J mice, B16-F10 tumours, pancreas; intravenous, 1 h, blocking study, with: 100 µg non-radioactive Ga-peptide).
The tissue uptake of `CCCC[C@@H]1NC(=O)[C@@H](NC(=O)[C@H](CCC(=O)O)NC(=O)CNC(=O)CN2CCN(CC(=O)O)CCN(CC(=O)O)CCN(CC(=O)O)CC2)CCCCNC(=O)C[C@@H](C(N)=O)NC(=O)[C@H](C(C)C)NC(=O)[C@@H]2CCCN2C(=O)[C@H](CCCNC(=N)N)NC(=O)CNC(=O)[C@H](Cc2c[nH]c3ccccc23)NC(=O)[C@H](CCCNC(=N)N)NC(=O)[C@@H](Cc2ccccc2)NC(=O)[C@H](Cc2c[nH]cn2)NC(=O)[C@H](CCC(=O)O)NC1=O` [gallium-67 labelled] is reported as 0.46 ± 0.03 %ID/g (normal C57 mice, liver; intravenous, 0.037 MBq, 2 h).
The tissue uptake of `O=C([O-])c1cccc(CN(CCN(Cc2cn(Cc3ccccc3)nn2)Cc2cccc(C(=O)[O-])n2)Cc2cn(Cc3ccccc3)nn2)n1.[64Cu+2]` is reported as 3.81 %ID/g (healthy athymic nude mice, heart; intravenous, 4 h).
For `CCCC[C@H](NC(=O)CNC(=O)CNC(=O)CN1CCN(CC(=O)O)CCN(CC(=O)O)CC1)C(=O)N[C@H]1CC(=O)NCCCC[C@@H](C(N)=O)NC(=O)[C@H](Cc2c[nH]c3ccccc23)NC(=O)[C@H](CCCNC(=N)N)NC(=O)[C@@H](Cc2ccccc2)NC(=O)[C@H](Cc2c[nH]cn2)NC1=O` [gallium-67 labelled], the tissue uptake was 1.25 ± 0.11 %ID/g (female C57 mice, B16/F1 melanoma, spleen; intravenous, 0.037 MBq, 0.5 h).
With `CN1C(=O)[C@@H](Cc2ccc(O)c(I)c2)NC(=O)CNC(=O)[C@H](Cc2ccc3ccccc3c2)NC(=O)[C@H](CCCNC(=N)N)NC(=O)[C@H]1CCCNC(=O)c1ccc(CNC(=O)CN2CCN(CC(=O)O)CCN(CC(=O)O)CCN(CC(=O)O)CC2)cc1` [lutetium-177 labelled] the tissue uptake was 0.5 ± 0.16 %ID/g (refers to: 177Lu radioactivity; female CB-17 SCID mice, Daudi xenograft, large intestine; intravenous, 0.16 nmol per mouse, 6 h).
The tissue uptake of `CCCC[C@H](NC(=O)CNC(=O)CNC(=O)CN1CCN(CC(=O)O)CCN(CC(=O)O)CCN(CC(=O)O)CC1)C(=O)N[C@H]1CC(=O)NCCCC[C@@H](C(N)=O)NC(=O)[C@H](Cc2c[nH]c3ccccc23)NC(=O)[C@H](CCCNC(=N)N)NC(=O)[C@@H](Cc2ccccc2)NC(=O)[C@H](Cc2c[nH]cn2)NC1=O` [gallium-67 labelled] is reported as 1.44 ± 0.63 %ID/g (female C57 mice, B16/F1 melanoma, bone; intravenous, 0.037 MBq, 0.5 h).
With `O=C([O-])CN1CCN(CC(=O)[O-])CCN(CC(=O)[O-])CCN(CC(=O)[O-])CC1.[64Cu+2]` the tissue uptake was 6.81 %ID/g (healthy athymic nude mice, kidney; intravenous, 15 min).
For `CC(C)[C@H](NC(=O)[C@@H]1CCCN1C(=O)[C@H](CCCNC(=N)N)NC(=O)[C@H](CS)NC(=O)[C@H](Cc1c[nH]c2ccccc12)NC(=O)[C@H](CCCNC(=N)N)NC(=O)[C@@H](Cc1ccccc1)NC(=O)[C@H](Cc1c[nH]cn1)NC(=O)[C@H](CCC(=O)O)NC(=O)[C@H](CS)NC(=O)[C@H](CS)NC(=O)[C@@H]1CC(=O)N[C@@H](CCCNC(=N)N)C(=O)NCC(=O)N[C@@H](CC(=O)O)C(=O)N[C@H](Cc2ccc(O)cc2)C(=O)N1)C(N)=O` [technetium-99m labelled], the tissue uptake was 0.41 ± 0.16 %ID/g (C57 mice B16/F1 melanoma female, heart; iv, 2 h, with: NDP-MSH 10 µg co-injected).
`N=C(N)NCCC[C@@H]1NC(=O)[C@H](CCCCNC(=O)CON=C[C@H](F)[C@@H](O)[C@H](O)[C@H](O)CO)NC(=O)[C@@H](Cc2ccc(O)cc2)NC(=O)[C@H](CC(=O)O)NC(=O)CNC1=O` [fluorine-18 labelled] gave a tissue uptake of 0.71 ± 0.65 %ID/g (nude mice U-87 MG tumour, bone; intravenous, 0.5 h).
`NC12CNCCNCC(NCc3ccc(CNC(=O)CCCC(=O)NCc4ccc(-c5nncnn5)cc4)cc3)(CNCCNC1)CNCCNC2.[64Cu+2]` has a tissue uptake of 0.35 ± 0.08 %ID/g (athymic nude mice, SW1222 xenograft, small intestine with contents; 12 h, pretargeting with huA33-TCO, 24 h interval).
For `O=C([O-])CN1CCN(CC(=O)[O-])CCN(CC(=O)NCCc2ccc3c(c2)C2C=CCC2C(c2cc4c(cc2Br)OCO4)N3)CCN(CC(=O)[O-])CC1.[111In+3]` (stereo not shown), the tissue uptake was 3.13 % ID (SPECT/CT imaging; mice with Hec50 tumour xenograft, liver; 4 h).
For `CC(C)[C@H](NC(=O)[C@@H]1CCCN1C(=O)[C@H](CCCNC(=N)N)NC(=O)[C@H](CS)NC(=O)[C@H](Cc1c[nH]c2ccccc12)NC(=O)[C@H](CCCNC(=N)N)NC(=O)[C@@H](Cc1ccccc1)NC(=O)[C@H](Cc1c[nH]cn1)NC(=O)[C@H](CCC(=O)O)NC(=O)[C@H](CS)NC(=O)[C@H](CS)NC(=O)CNC(=O)[C@@H]1CC(=O)N[C@@H](CCCNC(=N)N)C(=O)NCC(=O)N[C@@H](CC(=O)O)C(=O)N[C@H](Cc2ccc(O)cc2)C(=O)N1)C(N)=O` [technetium-99m labelled], the tissue uptake was 1.44 ± 0.78 %ID (C57 mice B16/F1 melanoma female, intestines; iv, 0.037 MBq, 24 h).
For `N=C(N)NCCC[C@H](NC(=O)CON=C[C@H](F)[C@@H](O)[C@H](O)[C@H](O)CO)C(=O)NCC(=O)N[C@@H](CC(=O)O)C(=O)O` [fluorine-18 labelled], the tissue uptake was 0.29 ± 0.03 %ID/g (nude mice U-87 MG tumour, bone; intravenous, 0.5 h).

Repeated from above:
The tissue uptake of `O=C([O-])c1cccc(CN(CCN(Cc2cn(Cc3ccccc3)nn2)Cc2cccc(C(=O)[O-])n2)Cc2cn(Cc3ccccc3)nn2)n1.[64Cu+2]` is reported as 3.81 %ID/g (healthy athymic nude mice, heart; intravenous, 4 h).
With `O=C([O-])CN1CCN(CC(=O)[O-])CCN(CC(=O)[O-])CCN(CC(=O)[O-])CC1.[64Cu+2]` the tissue uptake was 6.81 %ID/g (healthy athymic nude mice, kidney; intravenous, 15 min).
